{"data": "Published values gathered from unrelated publications", "note": "Each line is one published result; not all experiments were run side by side. Numbers after ± are the reported error."}
{"SMILES": "C[C@]1(CO)Cc2ncn(-c3ccc(C#N)c(Cl)c3)c2C(=O)O1", "system": "Japanese subjects", "conditions": "3 mg single dose", "endpoint": "drug-related adverse event incidence", "value": "0%"}
{"SMILES": "CC(C)(O)c1cc(Nc2cc(Oc3cn(C4CC4)nc3C3CCOCC3)ccn2)ccn1", "system": "grade 4 glioma expansion cohort", "conditions": "oral, 50 mg twice daily", "endpoint": "ALT increased, any grade", "value": "0%"}
{"SMILES": "COc1cc2c(Oc3ccc4[nH]c(C)cc4c3F)ccnc2cc1OCC1(N)CC1", "system": "paediatric recurrent refractory sarcoma", "conditions": "concentration not given, whole group", "endpoint": "grade 1 or 2 Hyperthyroidism", "value": "2.9%"}
{"SMILES": "CC(C)[C@@H]1NC(=O)CNC(=O)[C@H](CC(N)=O)NC(=O)[C@H](CCCNC(=N)N)NC(=O)[C@H](Cc2ccc(O)cc2)NC(=O)[C@H](C(C)C)NC(=O)[C@@H](NC(=O)[C@@H](NC(=O)[C@H](CC(N)=O)NC(=O)[C@H](Cc2c[nH]c3ccccc23)NC(=O)[C@H](C)NC(=O)[C@H](Cc2ccccc2)NC(=O)CN)C(C)C)CSSC[C@@H](C(=O)N[C@@H](Cc2c[nH]cn2)C(=O)N[C@@H](CCCNC(=N)N)C(=O)N[C@@H](CCCNC(=N)N)C(=O)N[C@@H](C)C(=O)N[C@@H](CC(N)=O)C(N)=O)NC(=O)[C@H](C(C)C)NC(=O)[C@H](CCCNC(=N)N)NC1=O", "test": "circular dichroism, item: Parallel", "system": "PBS", "conditions": "80 µM, pH 7.4, added: LTA 1 µM", "endpoint": "secondary structure content", "value": "3.09%"}
{"SMILES": "C=CCNc1c(O)cc2c(O)c1C[C@@H](C)C[C@H](OC)[C@H](O)[C@@H](C)/C=C(\\C)[C@H](OC(N)=O)[C@@H](OC)/C=C\\C=C(/C)C(=O)N2", "system": "unresectable or metastatic STS, GIST, other", "conditions": "intravenous, 300 mg/m^2", "endpoint": "patients with nausea TEAE", "value": "0%"}
{"SMILES": "CC(C)Nc1ccnc(Nc2cccc(-c3cccnc3)c2)n1", "test": "item: potassium", "system": "mouse, blood", "conditions": "intraperitoneal, 3 mg/kg", "endpoint": "blood chemistry", "value": "8.52 mmol/L"}
{"SMILES": "Clc1ccc(-c2ccccc2)cc1", "system": "Sprague-Dawley rats, female, serum", "conditions": "inhalation, 23 µg/rat, 2 h after exposure", "endpoint": "calcium", "value": "8 ± 2 mg/dL"}
{"SMILES": "O=C([O-])CN1CCN(CC(=O)[O-])CCN(CC(=O)NCC2CCC(C(=O)N[C@@H](Cc3ccc4ccccc4c3)C(=O)NCCCC[C@H](NC(=O)N[C@@H](CCC(=O)O)C(=O)O)C(=O)O)CC2)CCN(CC(=O)[O-])CC1.[177Lu+3] (some centres unmarked)", "test": "99mTc-DTPA plasma clearance", "system": "human", "conditions": "dose not given, after 3 cycles", "how to read": "baseline: before treatment", "endpoint": "change in measured GFR", "value": "18%"}
{"SMILES": "C[C@@H](NC(=O)N1C(=O)[C@H](Cc2ccnc(N)c2)[C@H]1C(=O)O)C1CCCCC1", "system": "healthy adult Chinese volunteers", "conditions": "continuous intravenous infusion, 1.0 mg/kg/h, 5-day infusion, CTCAE 5.0 grading", "endpoint": "abnormal liver function leading to discontinuation", "value": "0%"}
{"SMILES": "[18FH]", "system": "BALB/c mouse, large intestine", "conditions": "intravenous, 1 h", "endpoint": "tissue uptake", "value": "1.77 ± 0.57 %ID/g"}
{"SMILES": "CCCCCOc1ccc(-c2ccc(-c3ccc(C(=O)N[C@H]4C[C@@H](O)[C@@H](OCC[N+](C)(C)C)NC(=O)[C@@H]5[C@@H](O)[C@@H](C)CN5C(=O)[C@H]([C@@H](C)O)NC(=O)[C@H]([C@H](O)[C@@H](O)c5ccc(O)cc5)NC(=O)[C@@H]5C[C@@H](O)CN5C(=O)[C@H]([C@@H](C)O)NC4=O)cc3)cc2)cc1", "system": "adult patients in ICU, plasma", "conditions": "intravenous, 400 mg loading dose, after first dose, median", "endpoint": "Cmin", "value": "1900 ng/mL"}
{"SMILES": "O=c1ccc2ccc3occc3c2o1", "test": "post-procedure stability", "system": "rat plasma", "conditions": "200 ng/mL, 1 h, room temperature", "endpoint": "accuracy", "value": "80.4%"}
{"SMILES": "[Cl][212Pb][Cl]", "test": "item: 212Pb", "system": "athymic mouse, C4-2 prostate xenograft, skull", "conditions": "intravenous, 2 h, below quantification limit", "endpoint": "tissue uptake", "value": "7.3 ± 0.96 %ID/g"}
{"SMILES": "O=C(O)CCCOc1ccc(F)cc1-c1cc(-c2ccccc2C(F)(F)F)n(-c2ccccc2)n1", "test": "item: γ-glb", "system": "Crl:CD(SD) rats, female, serum", "conditions": "iv, 25 µg/kg, 14 days", "endpoint": "serum protein fraction", "value": "6.3 ± 2.3%"}
{"note": "For quick reference, copied from above:"}
{"SMILES": "O=c1ccc2ccc3occc3c2o1", "test": "post-procedure stability", "system": "rat plasma", "conditions": "200 ng/mL, 1 h, room temperature", "endpoint": "accuracy", "value": "80.4%"}
